Assay results gathered from unrelated publications.
Every numbered part comes from another study and shows a few of its results, in no order. pIC50: −log10 of the molar value.

Study 1 — action: inhibitor; tested at: 20 µM; quantity: inhibition
Target: Replicase polyprotein 1ab, nsp13 helicase (rep, Severe acute respiratory syndrome coronavirus 2, UniProt P0DTD1)
Compound = CCc1nc(C)ccc1O; value = 4.93%
Compound = COc1ccc(-c2cc3nccn3c(Nc3ncccc3C(N)=O)n2)cc1OC; value = 10.6%
Compound = Cc1c(C(=O)NC2CCCCC2)sc2nc3ccc(N)cc3n12; value = 1.66%
Compound = CCOc1ccc(C(=O)OCCN(CC)CC)cc1; value = 3.81%
Compound = C[C@@H]1CC(=O)NN=C1c1ccc(NN=C(C#N)C#N)cc1; value = 4.66%
Compound = CC(=C(CCO)SSCC1CCCO1)N(C=O)Cc1cnc(C)nc1N (stereo in doubt); value = 1.91%
Compound = CCN(CC)CCOC(=O)c1cc(Cl)c(N)cc1OC; value = 7.24%
Compound = Cc1cc(C)c(CNC(=O)c2cc(-c3ccc(CN4CCOCC4)cc3)cc3c2cnn3C2CCCC2)c(=O)[nH]1; value = 8.82%
Compound = NS(=O)(=O)c1cc(-c2nnn[nH]2)c(NCc2cccs2)cc1Cl; value = -0.18%
Compound = Cc1ccc2c(-c3ccccc3)nc(=O)n(C(C)C)c2c1; value = 6.2%
Compound = C[C@]12CCC(=O)C=C1CC[C@@H]1[C@@H]2CC[C@@]2(C)[C@H]1CC[C@]2(O)C(=O)CO; value = 6.56%
Compound = C[C@@](Cc1ccc(O)c(O)c1)(NN)C(=O)O; value = 2.42%
Compound = CN1CCC(c2c[nH]c3ccc(O)cc23)CC1; value = -2.15%
Compound = CN1C2C=C(c3sccc3Br)CC1CC2 (stereo not drawn); value = 1.06%
Compound = c1ccc(CN2CCC3(CCc4ccccc43)CC2)cc1; value = -3.36%
Compound = CC1(C)C(=O)N(CCN2CCC(C(=O)c3ccc(F)cc3)CC2)c2ccccc21; value = 8.46%
Compound = CC(C)=CCC/C(C)=C/CC/C(C)=C/CCC(=O)OC/C=C(\C)CCC=C(C)C; value = -17.3%
Compound = CNCCC=C1c2ccccc2C=Cc2ccccc21; value = 0.03%
Compound = Cc1ccc(Sc2cncc3sc(C(N)=O)cc23)cc1; value = 1.67%
Compound = CCCn1c(=O)c2[nH]c(C34C[C@@H]5CC3C[C@@H](C5)C4)nc2n(CCC)c1=O; value = -0.81%
Compound = Nc1nc(OCc2ccccc2)c2nc[nH]c2n1; value = 12.3%
Compound = C#CCC(Cc1cnc2nc(N)nc(N)c2n1)c1ccc(C(=O)N[C@@H](CCC(=O)O)C(=O)O)cc1 (stereo partly drawn); value = 3.38%
Compound = CC(C)NCC(O)c1ccccc1Cl (stereo not drawn); value = 7.13%
Compound = NC(=O)c1cnc2[nH]ccc2c1N[C@@H]1[C@@H]2CC3C[C@H]1C[C@@](O)(C3)C2; value = 5.07%
Compound = O=C(c1ccc(-c2ccc(Cl)cc2)o1)N(Cc1ccccn1)c1ccc(N2CCNCC2)cc1; value = 10.6%

Study 2 — technique: competition protein-binding microarray; molecule type: double-stranded DNA, one strand shown; sample: in vitro; tested at: 2 µM; together with: Pho4 competitor, 0.05 µM; direction: higher = stronger binding; quantity: fluorescence intensity; shared flanks, not repeated: … GTCTTGATTCGCTTGACGCTGCTG
Target: Centromere-binding protein 1, full length, His-tagged (CBF1, Saccharomyces cerevisiae, UniProt P17106, residues 1-351)
Sequence of UniProt P17106 (whole entry, looked up): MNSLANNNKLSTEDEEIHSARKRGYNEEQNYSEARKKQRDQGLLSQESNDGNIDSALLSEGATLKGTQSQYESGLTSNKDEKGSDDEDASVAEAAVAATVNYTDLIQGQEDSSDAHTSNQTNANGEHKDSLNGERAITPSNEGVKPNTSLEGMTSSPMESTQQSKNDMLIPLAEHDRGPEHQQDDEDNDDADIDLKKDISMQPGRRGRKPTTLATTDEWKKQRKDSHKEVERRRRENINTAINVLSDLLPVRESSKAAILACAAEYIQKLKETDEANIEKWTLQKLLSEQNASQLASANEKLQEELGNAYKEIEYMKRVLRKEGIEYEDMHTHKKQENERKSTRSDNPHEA
Setting: whole 60-bp probe, lowest competitor level
Sequence = TATTGAAAGTTTGCGAACGTGAAGTAAAACTGCAAA; value = 90 a.u.
Sequence = CCAGGGGAGTAGTGAACCGTGCCAGCACCTCGGGTA; value = 47.7 a.u.
Sequence = TGCGCAACAACTTGGGGAGTGGGTGTATGTCTAGAA; value = 61.9 a.u.
Sequence = CGCCCTATTCTGCACAGCGTGATGGGCTGTCTGACA; value = 94 a.u.
Sequence = CGGGGTTAAGTTTTTCACGTGAATTGCTTGCAGCAG; value = 628 a.u.
Sequence = CTTCTGTAAATTTGGGGAGTGGGTGGACGCGCCCCG; value = 73.9 a.u.
Sequence = AAAGCGGTAATTTGAGATGTGGGTGCAGATATCTAT; value = 78.2 a.u.
Sequence = AAAGCGGTAATTTGCGAAGTGGGTGCAGATATCTAT; value = 77.8 a.u.

Study 3 — cell line: HEK-293T/ACE2; tested at: concentration not given; time: 16 (unit not given); baseline: vehicle; quantity: viability
Structure (SMILES) = COC(=O)CCc1ccc(OCC(O)CNC(C)C)cc1 (stereo not drawn); value = 101%
Structure (SMILES) = CCC1(c2ccccc2)C(=O)NCNC1=O; value = 106%
Structure (SMILES) = [H]/N=C(/N)N[C@H]1[C@H](O)[C@@H](O)[C@H](O[C@@H]2O[C@@H](C)[C@](O)(C=O)[C@H]2O[C@@H]2O[C@@H](CO)[C@H](O)[C@@H](O)[C@@H]2NC)[C@@H](N/C(N)=N\[H])[C@@H]1O; value = 103%
Structure (SMILES) = O=C1NC(=O)C(c2ccccc2)(c2ccccc2)N1; value = 102%
Structure (SMILES) = OC(CNCC(O)C1CCc2cc(F)ccc2O1)C1CCc2cc(F)ccc2O1 (stereo not drawn); value = 104%

Study 4 — effect on: enzyme activity; action: inhibitor; setting: no DTT; quantity: pIC50
Target: Replicase polyprotein 1ab, main protease (rep, Severe acute respiratory syndrome coronavirus 2, UniProt P0DTD1)
Structure (SMILES) = Oc1cccc(-c2c3nc(c(-c4cccc(O)c4)c4ccc([nH]4)c(-c4cccc(O)c4)c4nc(c(-c5cccc(O)c5)c5ccc2[nH]5)CC4)C=C3)c1; value = 5.18
Structure (SMILES) = N=c1c[n+](N2CCOCC2)[n-]o1; value = < 4.70
Structure (SMILES) = C[n+]1c2cc(N)ccc2cc2ccc(N)cc21.Nc1ccc2cc3ccc(N)cc3nc2c1; value = 5.72

Study 5 — technique: RNA Bind-n-Seq; molecule type: RNA; sample: in vitro; tested at: 365 nM; baseline: no-protein control; direction: higher = stronger binding; quantity: RBNS enrichment (R)
Target: RNA binding protein fox-1 homolog 2, RRM domain, GST-SBP tag (RBFOX2, Homo sapiens, UniProt O43251-10, residues 100-194)
Setting: natural RNA segment, single round, ends assumed
Shared flanks, not repeated: GGGAGUUCUACAGUCCGACGAUC … UGGAAUUCUCGGGUGCCAA
Target sequence (chain): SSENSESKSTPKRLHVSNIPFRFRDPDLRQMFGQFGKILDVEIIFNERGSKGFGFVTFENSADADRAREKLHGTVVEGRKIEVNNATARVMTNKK
Sequence = UGAGUCCUUGUCUUCCAUGGUCUGAGAAUUGUCAGUAUCUGGCUCCAGGCCUGACUGGGGUAAGAAACAUGCCUCCACUUUACAGAGGUAGCUAUGGGUUUGGAACACUG; value = 0.331
Sequence = UCCCUCAGGACCCUGGGUAAGAUGGCUACAUUUAAGGUGACUCUGAAUGGUGGGGUUCUAGCUUGGUCACUUUCAUUUCUUGCCAUCAUAAAAACUAGUAGGCUGUGGAG; value = 1.17
Sequence = AGCCAGGCUUAUGCUGAAACCGGGGAAGUCUGACAUAUGCAGGAAACUCUUUUGAAAUAACUUUGGUGCCCAGGCCAAGUAGAAUGAGAUGAGACUGAGUUUGGCCUCUG; value = 1.78
Sequence = UCACAUGAUUUCUUUUCUGGAUGGGUGCAAAGUAUCACAGGAAGUGUUUUCUCUCUGUCGCCUUGUUUUGUACCUGGGUCUCGCUUUACUAGACCGUCUCUGCACAAAAG; value = 0.617
Sequence = GGUAUCGCUGGGCAGUGGUGGCACACGCCUUUAAUCCCAGCAAUUGGGAGGCAGAGGCAGGUGGAUUUCUAAGUUUGAGGCCAACCUGGUCUACAGAGUGAGUUCCAGGA; value = 0.251
Sequence = CUCGCCCCCCCCCAAGUUGCCAGUGUUUCUGAAUGUCCUCGUGUCUGUGGUUGCGCUCCUUUCCCCAGGAAAAAGAAAAGAAAAAGAAAUUCGCAUGUUUAAUGUGACUU; value = 9.16
Sequence = GCUAAGAGCACACAGAAUGGAUCUGACUGAGGGAGGAGACCACGGGAAAGCAAGGUUGCCUGGUAGCUCCAGCCCACAGUCCUCCCCUUCUGAAAGACCCACAGCGAUCU; value = 1.09
Sequence = UGACCCUGUUUCUCCUCAGAUGACAACCACCACUCCUGAGGUCUUUGUCCUCUCCUUGUCCCUUCAUCUUGGCUGGGCACAGUAUAUGAGUCCCCACGUGGUCGAGUCUG; value = 0.507

Study 6 — technique: protein binding microarray; molecule type: double-stranded DNA, one strand shown; sample: in vitro; tested at: not given; baseline: not given; direction: higher = stronger binding; quantity: E-score
Target: Histone acetyltransferase KAT6A, winged helix 2, GST fusion (KAT6A, Homo sapiens, UniProt Q92794, residues 85-181)
Setting: 8-mer, flanks averaged, mean of 2 arrays, mostly near background
Construct (chain): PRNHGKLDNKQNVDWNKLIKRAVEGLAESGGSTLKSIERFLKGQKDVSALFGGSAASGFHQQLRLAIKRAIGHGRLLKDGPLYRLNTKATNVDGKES
Sequence = ACACCCAC; value = 0.0786
Sequence = CCCCCTGA; value = 0.0178
Sequence = ACCTAGAC; value = -0.153
Sequence = CGTCCGGA; value = -0.0653
Sequence = CGCGCGAG; value = 0.198
Sequence = ATGTTTCA; value = 0.0307
Sequence = AGTCATAC; value = -0.169
Sequence = CCGCTTTC; value = -0.0287
